Experimental data pooled from the literature.
± marks the error that the study gave.

COc1cc([C@@H]2c3cc4c(cc3[C@@H](OCc3cc(-c5cccc(C#N)c5)no3)[C@H]3COC(=O)C23)OCO4)cc(OC)c1OC (some centres unmarked)  GI50 (MIA PaCa-2; cell growth or viability, SRB; 48 h): 10.2 µM
NS(=O)(=O)NCCc1ccccc1F  neuroprotection (rat hippocampal cultures; CFDA and PI staining; dose not given, with: glutamate or hydrogen peroxide): inactive
Cc1c(C)c(C)[c-](C)c1C.[C-]#[O+].[C-]#[O+].[C-]#[O+].[Cl-].[Cl-].[Cl-].[Ir+3].[Re+].c1cnc(-c2ncccn2)nc1  cells with depolarised mitochondria (MDA-MB-468; JC-1 flow cytometry; 25 µM): 30.6%
COc1cc(O)c(Cl)cc1/C=C/C(=O)c1ccc(C(F)(F)F)cc1  CD206 expression (mouse bone marrow macrophages; flow cytometry; 10 and 20 µM, with: LPS): increased
CCC(=C(c1ccc(Cl)cc1)c1ccc(OCCCN(C)C)cc1)c1ccc(OC)cc1  GI50 (NCI/ADR-RES; cell growth or viability): 7.27 µM
COc1cc(CNC(=O)C[C@H](C)CCC=C(C)C)ccc1OCc1cn(-c2ccc(Br)cc2)nn1  growth percent (NCI-H522; SRB; 10 µM, 48 h): 41.6%
CC(=O)Oc1ccccc1C(=O)[O][Pt]([NH2])([NH2])([Cl])([Cl])[O]C(=O)CCCc1ccccc1  IC50 fold lower (six human cancer lines; cytotoxicity, MTT; baseline: oxaliplatin): 7 fold
CC(=O)c1c(C)c2cnc(Nc3ccc(N4CCNCC4)cn3)nc2n(C2CCCC2)c1=O  specific productivity (recombinant CHO cell line; perfused bench bioreactor; 10 µM, day 15, added at day 8): 40 to 45 pg/cell/day
N#Cc1ccc(C=O)o1  antisickling activity fold improvement (human sickle cell (SS) red blood cells; 2 mM; baseline: 5-HMF): ~2.3 fold
COc1cc(/C=C/C(=O)/C=C(O)/C=C/c2ccc(OCC(=O)N3CCOCCOCCOCCOCCOCC3)c(OC)c2)ccc1OCC(=O)N1CCOCCOCCOCCOCCOCC1  inhibition (SK-LU-1; cell growth or viability, SRB; 5 µM): 39.3%
COc1cc(CNC(=O)C[C@H](C)CCC=C(C)C)ccc1OCc1cn(-c2ccc(C#N)cc2)nn1  growth (NCI/ADR-RES; SRB; 10 µM, 48 h): 14%
CCCCCCCCCCCCCCCOC(=O)/C=C/c1cc(O)c(O)c(OC)c1  late apoptotic cells (MDA-MB-231; AO-PI flow cytometry; IC50, 24 h): 24.7%
COc1cc(CNC(=O)C[C@H](C)CCC=C(C)C)ccc1OCc1cn(-c2cccc([N+](=O)[O-])c2)nn1  growth percent (SK-MEL-28 melanoma cells; SRB; 10 µM, 48 h): 98.5%
CC[C@H](C(=O)N1CCCC[C@H]1C(=O)O[C@H](CCc1ccc(OC)c(OC)c1)c1cccc(OCC(=O)NCCOCCOCCN(C)C/C=C/C(=O)Nc2cc3c(Nc4ccc(F)c(Cl)c4)ncnc3cc2OC)c1)c1cc(OC)c(OC)c(OC)c1  decrease in viability (NCI-H1975 FKBP12 F36V-PTPN2 knock-in; degrader, CellTiter-Glo; 5 µM, 4 days): 94.1%
CCCCN(CCCC)CC(O)COc1c2ccoc2c(OC)c2oc(CC)cc(=O)c12 (centres unmarked)  LDH release (HTB-140; 25 µM, 72 h): 24.6%
Cc1cc2c(c(=O)o1)C=C1CCC(C(C)CNCc3ccc(O)cc3)CC1O2 (centres unmarked)  reduction of Aβ oligomers (MC65; western blot, item: SDS-stable Aβ dimer; concentration not given, 24 h after tetracycline withdrawal): 72%
CSc1nc(Nc2ccc(/C(C)=N/NC(=O)c3ccc([N+](=O)[O-])cc3[N+](=O)[O-])cc2)c(C#N)c(-c2ccccc2)n1  S phase cells (HCT-116; flow cytometry; 1.14 µM, 24 h): 36.2%
Cc1nc(C)c(C=[N+]([O-])C(C)(C)C)nc1C  increase in protein level (primary rat midbrain neurons; Western blot, item: MEF2D; 300 µM, with: 20 µM MPP+): 60.5%
C=C(C)[C@@H]1CC[C@]2(C(=O)OCO/N=[N+](\[O-])N3CCCC3)CC[C@]3(C)[C@H](CC[C@@H]4[C@@]5(C)CC[C@H](OC(C)=O)C(C)(C)[C@@H]5CC[C@]43C)[C@@H]12  Annexin V-positive cells (B16-F10; Annexin V/PI flow cytometry; 0.25 µM, 36 h): 8.27%
CC(=O)OC[C@H]1O[C@@H](Sc2sc(C(=O)c3ccc(C)cc3)c(N)c2-c2nc3ccccc3s2)[C@H](OC(C)=O)[C@@H](OC(C)=O)[C@H]1OC(C)=O  growth (NCI/ADR-RES; SRB; 10 µM, 48 h): 82%
CCCC(CCC)C(=O)[O][Pt]([NH2])([NH2])([Cl])([Cl])[O]C(=O)c1ccccc1OC(C)=O  selectivity index (HEK293 and BCPAP; cytotoxicity, MTT; baseline: IC50 HEK293 over IC50 BCPAP): 59
CC(C)c1cnc(-c2cc(Cl)ccc2F)cc1Nc1ccncc1C(=O)NC(CO)CO  pSMAD2 level (VCaP; enzalutamide-induced SMAD2 phosphorylation, inhibitor, Western blot; concentration not given, with: enzalutamide and high-concentration dihydrotestosterone): inhibited
Cc1cnc2c(ccc3c(C)c(C)cnc32)c1C.O=C([O-])Cc1ccccc1Nc1c(Cl)cccc1Cl.O=C([O-])Cc1ccccc1Nc1c(Cl)cccc1Cl.[Mn+2]  intracellular ROS level (HMLER-shEcad; 0.25 µM, 3 h; baseline: untreated): 2 fold
COc1cc(/C=C/c2cc(C)n[nH]2)ccc1O  reduction in micronuclei (CHO; 2.5 µM, 2 h pretreatment, read 18 h post-irradiation, with: 4 Gy radiation; baseline: irradiated control): ~25%
CO[C@H]1O[C@H](COC(c2ccccc2)(c2ccccc2)c2ccccc2)[C@@H](OS(=O)(=O)c2ccccc2)[C@H](OS(=O)(=O)c2ccccc2)[C@H]1OS(=O)(=O)c1ccccc1  inhibition (Ehrlich; cell growth or viability, MTT; 500 µg/mL, 24 h): 10.4%
COc1cc(CNC(=O)C[C@H](C)CCC=C(C)C)ccc1OCc1cn(-c2ccc(Cl)c(Cl)c2)nn1  growth percent (SNB-75 CNS cancer cells; SRB; 10 µM, 48 h): 47.2%
O=C(N1CCCC1)n1cc(-c2ccc(-c3ccccc3)cc2)nn1  SILAC ratio (mouse T-cells; N-terminal labeled proteins, N-terminal enrichment proteomics, item: CCDC97; 1 nM, 6 h; baseline: DMSO): 1.26 ± 0.16
CC1(C)C(=CC=C2C[N+](C)(C)CC(C=CC3=[N+](CCCCCC(=O)O)c4ccccc4C3(C)C)=C2c2ccccc2)N(CCCCCC(=O)O)c2ccccc21  cellular uptake (MDA-MB-231; with: FBS 10%; baseline: serum-free medium): no effect
O=Cc1c(O)ccc2ccccc12  log2 fold change (HUVEC; RNA sequencing, item: ATF3; 75 µM, 24 h; baseline: DMSO): 4.47
COc1cc(CNC(=O)C[C@H](C)CCC=C(C)C)ccc1OCc1cn(-c2ccccc2F)nn1  growth percent (NCI-H522; SRB; 10 µM, 48 h): 57.1%
CC(C)C[C@H](NC(=O)[C@H](CC(C)C)NC(=O)[C@@H](Cc1c[nH]c2ccccc12)NC(=O)[C@H](Cc1ccccc1)NC(=O)[C@@H](Cc1c[nH]c2ccccc12)NC(=O)[C@H](CCC(N)=O)NC(=O)[C@H](CCC(N)=O)NC(=O)[C@@H]1CCCN1C(=O)[C@H](CCCCN)NC(=O)[C@@H]1CCCN1C(=O)[C@H](N)CCCNC(=N)N)C(N)=O  ERK activity (HEK293 expressing NK1R; nuclear ERK, antagonist, FRET biosensor; concentration not given, 30 min, with: substance P): inhibited
O=C1Nc2ccc(Cl)cc2C1=Cc1c(Cl)[nH]c2c1ccc1ccccc12  TGI (prostate cancer subpanel of NCI-60; 48 h): 8.91 µM
COc1cc(OC)cc([C@@H]2C[C@H](C)OC(=O)c3c(C(=O)C(F)(F)F)c4ccccn4c32)c1 (relative stereo)  selectivity ratio (MCF-10A; resazurin; baseline: CC50 MCF-10A over IC50 MDA-MB-231): ≥ 24
COc1cc(CNC(=O)C[C@H](C)CCC=C(C)C)ccc1OCc1cn(-c2cccc(C(F)(F)F)c2)nn1  growth percent (NCI-H522; SRB; 10 µM, 48 h): 83.1%
CC(C)(C)C(=O)Nc1ccc2[nH]c(CN3CCC(N(CCCN4CCOCC4)CC4OC(n5cnc6c(N)ncnc65)C(O)C4O)CC3)nc2c1 (centres unmarked)  inhibition (H460 wild type cells; colony formation; 5 µM): 61.6%
CS(C)=O.CS(C)=O.[Cl][Cu][Cl].c1ccc(-c2nnc(-c3ccc4c(c3)OCO4)[nH]2)nc1  cells with altered mitochondrial potential (T24; JC-1 flow cytometry; 5.3 µM, 24 h): 35.1%
O=C(CSc1nc2ccccc2s1)Nc1nonc1[N+](=O)[O-]  overlap with Myc targets (Ramos; LFQ mass spectrometry; 10 µM, 8 h): 15.2%
COc1ccc([C@@H]2CC(=O)c3c(O)cc(O[C@@H]4O[C@H](CO[C@@H]5O[C@@H](C)[C@H](O)[C@@H](O)[C@H]5O)[C@@H](O)[C@H](O)[C@H]4O)cc3O2)cc1O  cell count (MRC5; trypan blue exclusion; 50 µg/mL, 72 h): 20800 ± 404
CCn1nc(C(C)(C)C)cc1Nc1nc(-c2ccc(-n3cnc(C)c3)c(F)c2)cs1  total amyloid beta level (SH-SY5Y-APP; sandwich ELISA; 100 pM to 10 µM, 24 h): no effect
C=C[C@H](OC(C)=O)c1ccc(OC(C)=O)cc1  Bcl-2 protein decrease (MDA-MB-231; Western blot; IC50, 24 h; baseline: untreated): 40 to 50%
C[C@H](NC(=O)[C@H](Cc1c[nH]c2ccccc12)NC(=O)[C@@H](N)CCCNC(=N)N)C(=O)N[C@@H](Cc1c[nH]c2ccccc12)C(=O)N[C@@H](CCCNC(=N)N)C(=O)N[C@@H](Cc1c[nH]c2ccccc12)C(=O)N[C@@H](CCC(N)=O)C(=O)N[C@@H](Cc1c[nH]c2ccccc12)C(=O)N[C@@H](CCCNC(=N)N)C(N)=O  viability (MDA-MB-468; MTT; concentration not given, 48 h, 37 °C, 5% FBS; baseline: untreated cells): 43 ± 6%
COc1ccc([C@@H]2CC(=O)c3c(O)cc(O[C@@H]4O[C@H](CO[C@@H]5O[C@@H](C)[C@H](O)[C@@H](O)[C@H]5O)[C@@H](O[C@H]5O[C@H](CO)[C@@H](O)[C@H](O)[C@H]5O)[C@H](O)[C@H]4O)cc3O2)cc1O  gap closure (A549; cell migration, scratch; 150 µg/mL, 48 h): 4.37 ± 0.75%
C[C@H](NC(=O)[C@H](CCC(N)=O)NC(=O)[C@H](Cc1c[nH]c2ccccc12)NC(=O)[C@@H](N)CCCNC(=N)N)C(=O)N[C@@H](CCCNC(=N)N)C(=O)N[C@@H](Cc1c[nH]c2ccccc12)C(=O)N[C@@H](CCC(N)=O)C(=O)N[C@@H](Cc1c[nH]c2ccccc12)C(=O)N[C@@H](CCCNC(=N)N)C(N)=O  viability (MDA-MB-468; MTT; concentration not given, 48 h, 37 °C, 5% FBS; baseline: untreated cells): 51 ± 9%
O=C(Cn1c(=O)c(Cc2ccccc2)nc2ccccc21)OCCNCCO  selectivity index (HCT-116; MTT; baseline: HCT-116 over normal colonocytes): 29.4
C=CC(OC(C)=O)c1cc(OC)c(OC(C)=O)c(OC)c1 (centres unmarked)  phospho-Akt reduction (MDA-MB-231; Western blot, item: phospho-Akt/Akt; concentration not given, 24 h): 70 to 94%
COc1cc(CNC(=O)C[C@H](C)CCC=C(C)C)ccc1OCc1cn(-c2ccccc2[N+](=O)[O-])nn1  growth percent (COLO 205; SRB; 10 µM, 48 h): 78%
Cc1cc(O)cc(O)c1C(=O)c1c2c3c(c(O)cc(C)c3oc1=O)C(=O)c1c(O)cc(O)cc1-2  Bax/Bcl-2 ratio (Bel-7402; western blot; concentration not given, 12 h; baseline: untreated): increased
